Literature values, collected from citations in different studies.
Protocols differ between the studies behind these lines.
Sequence of UniProt Q8WU08 (whole entry, looked up): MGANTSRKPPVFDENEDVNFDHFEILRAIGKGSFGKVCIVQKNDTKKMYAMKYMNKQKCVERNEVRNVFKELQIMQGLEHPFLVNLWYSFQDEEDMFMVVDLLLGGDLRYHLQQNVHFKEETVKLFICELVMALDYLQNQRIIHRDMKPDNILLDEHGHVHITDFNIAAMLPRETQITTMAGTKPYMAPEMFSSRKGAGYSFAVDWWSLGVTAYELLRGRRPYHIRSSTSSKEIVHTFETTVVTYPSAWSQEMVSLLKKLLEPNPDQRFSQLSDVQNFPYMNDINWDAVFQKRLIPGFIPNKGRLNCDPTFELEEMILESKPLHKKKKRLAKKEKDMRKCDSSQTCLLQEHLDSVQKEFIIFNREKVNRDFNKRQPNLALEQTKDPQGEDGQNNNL

C[S+]([O-])c1ccc(-c2nc(-c3ccc(F)cc3)c(-c3ccncc3)[nH]2)cc1 (stereo not shown)  inhibition (CSNK1E; kinase activity, inhibitor; 0.5 µM): 60%
CCCC(C)C(=O)O (stereo not shown)  EC10 (HDAC; enzyme activity, inhibitor; day 10, unbound medium concentration): 1440 µM
CO[C@H]1/C=C/O[C@@]2(C)Oc3c(C)c(O)c4c(O)c(c(/C=N/N5CCN(C)CC5)c(O)c4c3C2=O)NC(=O)/C(C)=C\C=C\[C@H](C)[C@H](O)[C@@H](C)[C@@H](O)[C@@H](C)[C@H](OC(C)=O)[C@@H]1C  kcat (P-glycoprotein; optimised model value): 0.0102 s⁻¹
O=C(c1cc(-c2cc3c(cc2C(=O)N2Cc4ccccc4C[C@H]2CN2CCOCC2)OCO3)n2c1CCCC2)N(c1ccccc1)c1ccc(O)cc1  EC50 fold change (BCL-2 G101V; baseline: G101V over wild type): 8.4
CCC(CC)C(=O)O  EC10 (histone deacetylase; enzyme activity, inhibitor; mouse embryonic stem cells; unbound medium concentration): 931 µM
Cc1cn([C@H]2C[C@H](O)[C@@H](CO)O2)c(=O)nc1N  Vmax (cytidine deaminase (human); substrate; concentration not given, 37 °C): 40.8 U/mg
Nc1cc(C(F)(F)F)c(-c2nc(N3CCOCC3)nc(N3CCOCC3)n2)cn1  remaining activity (STK32A (Homo sapiens, UniProt Q8WU08); enzyme activity; 10 µM; baseline: untreated): 100%
CNC(=O)c1c(C)oc2cc(Oc3ncnc4cc(OC)c(OC)cc34)ccc12  target plasma concentration (VEGFR-2; sustained VEGFR-2 phosphorylation inhibition; human, translated from mouse; oral, 2.5 mg/kg single dose in mouse): > 176 ng/mL
Nc1nc(Nc2ccc(S(N)(=O)=O)cc2)n(C(=S)Nc2c(F)cccc2F)n1  inhibition (CSNK1E; kinase activity, inhibitor; 0.5 µM): 8%
COc1ccccc1Oc1cccc(CN2CCC(O)(c3ccccc3C(=O)O)CC2)c1  EC50 (human CCR8 W194A mutant (TM5); IP accumulation, agonist): 0.02 µM
O=C(Nc1nc2ccccc2[nH]1)c1ccccc1  activity (Rab-9A; PubChem AID 485297): 1.6 µM
CCCC(CCC)C(=O)O  EC10 (HDAC; enzyme activity, inhibitor; day 10, unbound medium concentration): 27 µM
C=C1C(=O)O[C@@H]2C[C@@]3(C)CCCC(=C)[C@@H]3C[C@H]12  active concentration (NR4A1 (Nur77); inverse agonist or antagonist): 21.5 µM
N=C(N)c1ccc2[nH]c(-c3cccc(C4(O)CCCCC4)n3)cc2c1  inhibitory potency (hepsin; inhibitor): 0.1 µM
COc1ccccc1Oc1cccc(CN2CCC(NC(=O)C(CCN3CCCC3)c3ccccc3)CC2)c1 (stereo not shown)  EC50 (human CCR8 Y113A mutant (TM3); IP accumulation, agonist): > 10 µM
C=CCCC(=O)O  EC10 (histone deacetylase; enzyme activity, inhibitor; mouse embryonic stem cells; unbound medium concentration): 85 µM
O=C1NC(=O)c2c1c1c3ccccc3[nH]c1n1cncc21  inhibition (CSNK1D; kinase activity, inhibitor; 0.5 µM): 83%
O=C(O)C(=O)O  Km (anion exchanger, human; substrate; neutrophils): > 95 mM
CC(C)(C)n1nc(Cc2cccc3ccccc23)c2c(N)ncnc21  inhibition (CSNK1G1; kinase activity, inhibitor; 0.5 µM): 7%
CC(C)(O)c1cn(-c2ccc(-c3cc(F)c(CO)c(S(C)(=O)=O)c3)cc2F)c(C(C)(C)c2c(Cl)cccc2Cl)n1  EC50 (ABCA1): 0.0006 µM
CCCCCC(CCC)C(=O)O (stereo not shown)  EC10 (histone deacetylase; enzyme activity, inhibitor; mouse embryonic stem cells; unbound medium concentration): 5 µM
COc1ccccc1Oc1cccc(CN2CCC(NC(=O)C3CC(=O)Nc4ccccc43)CC2)c1 (stereo not shown)  EC50 (human CCR8 S262A mutant (TM6); IP accumulation, agonist): 0.093 µM
CC(C)n1cnc2c(Nc3cccc(Cl)c3)nc(NCCO)nc21  inhibition (CSNK1E; kinase activity, inhibitor; 0.5 µM): 65%
CC(C)(O/N=C(\C(=O)N[C@@H]1C(=O)N2C(C(=O)[O-])=C(C[n+]3ccccc3)CS[C@H]12)c1csc(N)n1)C(=O)O  MIC (Klebsiella pneumoniae; clinical isolate RKI-No_908/15): ≤ 2 µg/mL
COc1cc(Nc2c(C#N)cnc3cc(OCCCN4CCN(C)CC4)c(OC)cc23)c(Cl)cc1Cl  inhibition (CSNK1G1; kinase activity, inhibitor; 0.5 µM): 4%
Clc1ccc(C(c2c[nH]c3ccccc23)c2c[nH]c3ccccc23)cc1  active concentration (NR4A1 (Nur77); inverse agonist or antagonist): 20 µM
Fc1ccc(-c2nc3n(c2-c2ccncc2)CCS3)cc1  inhibition (CSNK1D; kinase activity, inhibitor; concentration not given): 97%
Cc1cccc(Nc2cc(Cl)nc(SCC(=O)O)n2)c1C  agonist activity (human PPARalpha T279M; agonist; concentration not given; baseline: wild type): increased
CC1(C)S[C@@H]2[C@H](NC(=O)[C@H](N)c3ccccc3)C(=O)N2[C@H]1C(=O)O  MIC (Acinetobacter baumannii; clinical isolate RKI-No_230/15): > 16 µg/mL
Oc1c2ccccc2c2c3c(cccc13)N=N2  inhibition (CSNK1E; kinase activity, inhibitor; 0.5 µM): 75%
O=S(=O)(O)O  Km (anion exchanger, human; substrate; neutrophils): > 95 mM
CCCCC(CC)C(=O)O (stereo not shown)  EC10 (HDAC; enzyme activity, inhibitor; day 4, unbound medium concentration): 252 µM
OB1OCc2cc(F)ccc21  residence time (leucyl-tRNA synthetase, Saccharomyces cerevisiae): ~6 h
O=CO  Km (anion exchanger, human; substrate; neutrophils): 13 mM
CCNS(=O)(=O)c1ccc(OC)cc1C1(O)CCN(Cc2cccc(Oc3ccccc3OC)c2)CC1  EC50 (human CCR8 Y113A mutant (TM3); IP accumulation, agonist): > 10 µM
CC(C)Oc1ccc(-c2c[nH]cc2CN(C)CCN)cc1  selectivity ratio (PRMT8; enzyme activity, inhibitor; baseline: PRMT1 IC50 over PRMT8 IC50): 6 fold
Cn1c(=O)oc2ccc(-c3ccc(C[C@@H](C#N)NC(=O)[C@@H]4CNCCCO4)cc3)cc21  inhibition (neutrophil elastase human; bronchiectasis patients, sputum; dose not given): ~90%
Cc1cc(NC(=O)c2cccc(NC(=O)/C=C/CN(C)C)c2)ccc1Nc1nccc(-c2cccnc2)n1  remaining activity (PDGFR; 1 µM; baseline: control): 5%
Cc1cn([C@@H]2O[C@H](CO)[C@@H](O)[C@H]2O)c(=O)nc1N  Vmax (cytidine deaminase (human); substrate; concentration not given, 37 °C): 35 U/mg
CCCCC(C)C(=O)O (stereo not shown)  EC10 (HDAC; enzyme activity, inhibitor; day 10, unbound medium concentration): 2300 µM
CC(C)(O/N=C(\C(=O)N[C@@H]1C(=O)N2C(C(=O)[O-])=C(C[N+]3(CCNC(=O)c4ccc(O)c(O)c4Cl)CCCC3)CS[C@H]12)c1csc(N)n1)C(=O)O  kcat (KPC-31; hydrolysis by enzyme, substrate): 0.008 s⁻¹
CCCC(C)(C)C(=O)O  EC10 (HDAC; enzyme activity, inhibitor; day 10, unbound medium concentration): 3050 µM
COc1ccccc1Oc1cccc(CN2CCC3(CC2)C(=O)NCN3CCc2ccccc2)c1  EC50 (human CCR8 F123A mutant (TM3); IP accumulation, agonist): 0.007 µM

Repeated from above:
COc1ccccc1Oc1cccc(CN2CCC(NC(=O)C(CCN3CCCC3)c3ccccc3)CC2)c1 (stereo not shown)  EC50 (human CCR8 Y113A mutant (TM3); IP accumulation, agonist): > 10 µM
C=CCCC(=O)O  EC10 (histone deacetylase; enzyme activity, inhibitor; mouse embryonic stem cells; unbound medium concentration): 85 µM
O=C1NC(=O)c2c1c1c3ccccc3[nH]c1n1cncc21  inhibition (CSNK1D; kinase activity, inhibitor; 0.5 µM): 83%
O=C(O)C(=O)O  Km (anion exchanger, human; substrate; neutrophils): > 95 mM
CC(C)(C)n1nc(Cc2cccc3ccccc23)c2c(N)ncnc21  inhibition (CSNK1G1; kinase activity, inhibitor; 0.5 µM): 7%
CC(C)(O)c1cn(-c2ccc(-c3cc(F)c(CO)c(S(C)(=O)=O)c3)cc2F)c(C(C)(C)c2c(Cl)cccc2Cl)n1  EC50 (ABCA1): 0.0006 µM
